Measured values gathered from unrelated publications.
Each numbered part is a random draw from the data of one study; scales do not carry over between parts. Substitutions count along the parent as printed.

Sample 1
Target: CCNB3, cyclin fold, Cln2 fusion (human)
Method: yeast growth competition, sequencing
Sample: yeast
Notes: weak parent motif
Relative to: not given
Direction: higher = stronger binding
Starting sequence: RB1 docking peptide (human); PKPLKKLRFDIEG
For `I11K`, “normalised enrichment score” read 0.392.
`F9W`: “normalised enrichment score” 0.0756.
`L7T` — result for “normalised enrichment score”: -0.189.
`L7A`: “normalised enrichment score” -0.184.
For `L7W`, “normalised enrichment score” read 0.363.
`G13D` — result for “normalised enrichment score”: 0.134.
Under “normalised enrichment score”, `R8V` is recorded as 0.564.
Under “normalised enrichment score”, `I11G` is recorded as -0.0443.
`L4Y`: “normalised enrichment score” -0.0902.
For `L4K`, “normalised enrichment score” read -0.285.
`F9G` — result for “normalised enrichment score”: 0.353.
`P1E` — result for “normalised enrichment score”: 0.593.
For `K2Q`, “normalised enrichment score” read 0.189.
For `E12S`, “normalised enrichment score” read 0.125.
`L7D`: “normalised enrichment score” -0.501.
For `K2E`, “normalised enrichment score” read 0.651.
For `E12I`, “normalised enrichment score” read 0.749.
`D10Q` — result for “normalised enrichment score”: 0.153.
`K5M` — result for “normalised enrichment score”: 0.237.
Under “normalised enrichment score”, `E12P` is recorded as 0.434.
For `K2F`, “normalised enrichment score” read 0.227.
`I11N`: “normalised enrichment score” 0.472.
For `L4R`, “normalised enrichment score” read 0.403.
For `K6M`, “normalised enrichment score” read 0.46.
`K2C` — result for “normalised enrichment score”: 0.373.

Sample 2
Target: NFE2L2, bZIP domain (human)
Method: DHFR protein complementation
Sample: yeast
Notes: single substitutions, most at no-binding floor
Relative to: wild-type JUN-FOS pair
Direction: higher = stronger binding
Starting sequence: JUN, bZIP domain (human); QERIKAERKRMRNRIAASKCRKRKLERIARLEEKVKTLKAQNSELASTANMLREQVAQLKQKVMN; partner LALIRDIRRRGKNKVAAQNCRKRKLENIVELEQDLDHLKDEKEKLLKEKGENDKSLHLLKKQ
`L45M` has a binding fitness of -1.37 natural log.
For `Q55D`, the binding fitness was -1.51 natural log.
`A40F` gave a binding fitness of -1.55 natural log.
For `V35K`, the binding fitness was -1.35 natural log.
For `I28R`, the binding fitness was -1.29 natural log.
The binding fitness of `T48D` is reported as -1.48 natural log.
With `M51K` the binding fitness was -1.45 natural log.
For `E32R`, the binding fitness was -1.27 natural log.
With `R30Y` the binding fitness was -1.21 natural log.
With `E32A` the binding fitness was -1.3 natural log.
`A46R` has a binding fitness of -1.26 natural log.
`Q55V` has a binding fitness of -1.6 natural log.
`Q41N` gave a binding fitness of -1.51 natural log.
For `M51A`, the binding fitness was -1.37 natural log.
`Q58P` gave a binding fitness of -1.58 natural log.
`A57G` has a binding fitness of -1.52 natural log.
For `Q41P`, the binding fitness was -1.22 natural log.
With `A46W` the binding fitness was -1.44 natural log.
The binding fitness of `Q41V` is reported as -1.4 natural log.
`E32W` has a binding fitness of -1.5 natural log.
`K39T` has a binding fitness of -1.41 natural log.
With `Q55Y` the binding fitness was -1.49 natural log.
`L38H` has a binding fitness of -1.45 natural log.
`I28V` has a binding fitness of -1.52 natural log.
For `I28D`, the binding fitness was -1.54 natural log.

Sample 3
Target: Sal-like protein 4, full length isoform B (SALL4, Homo sapiens, UniProt Q9UJQ4-2, residues 1-616)
Method: universal PBM
Form: double-stranded DNA, one strand shown
Sample: in vitro
Tested at: not given
Notes: 8-mer, flanks averaged, mean of replicates
Direction: higher = stronger binding
`CATCCACC` gave an E-score of -0.095.
For `TCCTCAGA`, the E-score was 0.00172.
`ACGAACAC` has an E-score of -0.0269.
`CTTTTAGA` has an E-score of 0.0189.
`GTTGCGCA` has an E-score of -0.167.
For `TCTGGCCA`, the E-score was -0.0153.
`GCTAAAGC` gave an E-score of -0.0582.
For `ATTGGACG`, the E-score was 0.118.
The E-score of `CTACAACA` is reported as 0.126.
For `ACTCTCTA`, the E-score was 0.131.
For `ACATTAAA`, the E-score was 0.304.
The E-score of `GCCTACGC` is reported as -0.146.
`ACTAATCA` gave an E-score of 0.246.
With `AACTGAGA` the E-score was 0.00111.
`GGGACTCA` has an E-score of -0.273.
`AACATTCG` has an E-score of -0.0536.
For `CGTCACTA`, the E-score was 0.0558.
`AGAGTTGC` has an E-score of -0.0724.
The E-score of `GTGGCGTA` is reported as -0.0264.
`GGCGCATA` has an E-score of 0.0132.
`CCCAGGGG` has an E-score of -0.391.
For `ATAGTTGC`, the E-score was 0.238.
The E-score of `CATTAATG` is reported as 0.337.
For `GTTTCGTA`, the E-score was 0.132.
For `ACAGACTG`, the E-score was -0.0504.

Sample 4
Target: Histone acetyltransferase KAT6A, winged helix 2, GST fusion (KAT6A, Homo sapiens, UniProt Q92794, residues 85-181)
Method: protein binding microarray
Form: double-stranded DNA, one strand shown
Sample: in vitro
Tested at: not given
Notes: 8-mer, flanks averaged, mean of 2 arrays, mostly near background
Relative to: not given
Direction: higher = stronger binding
Residues (chain): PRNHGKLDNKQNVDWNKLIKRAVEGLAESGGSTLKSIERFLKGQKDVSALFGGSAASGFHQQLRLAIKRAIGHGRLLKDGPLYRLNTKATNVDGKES
With `CGCCCTAC` the E-score was 0.0256.
With `GCAATCCC` the E-score was 0.227.
`GCCGATCA` gave an E-score of 0.159.
The E-score of `CGTTATTA` is reported as -0.177.
For `CAGGACCG`, the E-score was 0.015.
`CCTCACAG` gave an E-score of 0.11.
For `CACGCTAA`, the E-score was -0.177.
`AAACACGA` gave an E-score of 0.0556.
`AAAGATGC` has an E-score of -0.0664.
The E-score of `ATCACGCC` is reported as 0.0593.
`TGTTTGAA` has an E-score of 0.0679.
For `GAACTGAA`, the E-score was -0.103.
With `TAAAGAGA` the E-score was -0.127.
With `ACAGGCTC` the E-score was -0.00268.
With `ACCGCGGC` the E-score was 0.161.
`AAGCGCAT` has an E-score of 0.0911.
With `TGATGCCA` the E-score was -0.133.
`CTTCTCGA` gave an E-score of 0.013.
With `CTTTTCAA` the E-score was 0.0912.
With `CGGAGGTA` the E-score was 0.00902.
With `AACACGGA` the E-score was 0.0612.
For `ACTGCGAT`, the E-score was 0.0756.
With `AAAATAGC` the E-score was -0.209.
`TATACAGA` has an E-score of 0.0399.
`AGCGCAGA` gave an E-score of 0.0992.

Sample 5
Target: ABI1, truncated, D143A, DHFR fusion (Arabidopsis thaliana)
Method: DHFR PCA, deep sequencing
Sample: yeast
Notes: methotrexate growth selection, single substitutions
With: (+)-ABA 0 µM
Relative to: wild-type fitted maximum
Direction: higher = stronger binding
Starting sequence: PYL1, truncated, DHFR fusion (Arabidopsis thaliana); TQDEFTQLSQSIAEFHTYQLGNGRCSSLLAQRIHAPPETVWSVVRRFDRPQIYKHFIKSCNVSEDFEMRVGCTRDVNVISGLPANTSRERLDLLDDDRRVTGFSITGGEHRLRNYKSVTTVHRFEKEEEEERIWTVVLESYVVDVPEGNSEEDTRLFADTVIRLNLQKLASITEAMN
`E38F` — result for “relative binding score”: -8.01%.
For `F157Q`, “relative binding score” read 3.72%.
`T73W` — result for “relative binding score”: 17.9%.
`R123Q` — result for “relative binding score”: 58.7%.
Under “relative binding score”, `V137Y` is recorded as -10.5%.
`S140Y` — result for “relative binding score”: -0.843%.
For `E109M`, “relative binding score” read 3.05%.
`L8G`: “relative binding score” -2.59%.
`V118L` — result for “relative binding score”: -2.05%.
`C25E`: “relative binding score” 0.959%.
`F103K`: “relative binding score” -0.129%.
`T119A` — result for “relative binding score”: -4.46%.
`N177C`: “relative binding score” 25.4%.
`S9T`: “relative binding score” 27.1%.
`Y53F` — result for “relative binding score”: 4.84%.
`F103A`: “relative binding score” -4.41%.
Under “relative binding score”, `Y115W` is recorded as -0.495%.
`T119S` — result for “relative binding score”: -4.49%.
`Q167S` — result for “relative binding score”: 11.4%.
`S140R`: “relative binding score” 7.92%.
For `S9F`, “relative binding score” read 5.66%.
`C25W` — result for “relative binding score”: -1.67%.
`S140T`: “relative binding score” 8.81%.
`R32P`: “relative binding score” 4.8%.
Under “relative binding score”, `F157T` is recorded as 5.61%.

Other studies, line by line
With `PhoQ, residues 284 288 289 292 302 303 TTSMTC` the fold induction was 4.03 (PhoP, residues 12 14 15 18 19 LYFRQ (Escherichia coli, UniProt P23836); Sort-seq, refers to: YFP reporter; E. coli; PhoQ-PhoP variant library, with: 10 µM Mg2+; relative to: high Mg2+ state, higher = stronger signaling).
